Measured values of several laboratories.
± marks the error that the study gave.

SMILES | species | medium | route | dose | notes | AUC(0-t)
O=[N+]([O-])c1ccc(-c2ccc(O)cc2)c2cccnc12 | male ICR mouse | plasma | oral | 5 mg/kg | – | 30.2 ng·h/mL
Cc1cc(NC2Cc3cc(F)c(F)cc3C2)n2nc(C(C)(F)F)nc2n1 | NSG mouse | whole blood | oral | 10 mg/kg | – | 124 µM·h
O=c1c2cc(Cl)c(CO)cc2[nH]c(=S)n1Cc1cccnc1 | mouse | – | oral | 50 mg/kg | – | 140 ng·h/mL
Cc1[nH]c(C)c(S(=O)(=O)Nc2ccc(C(F)(F)F)c(Cl)c2)c1C(=O)N1CCC(F)(F)C1 | mouse | plasma | intraperitoneal | 40 mg/kg | – | 72700 ng·h/g
c1csc(CNc2cc[nH]n2)c1 | male CD-1 mouse | plasma | oral | 20 mg/kg | hydrochloride salt | 24.4 µM·h
CCOC(=O)C1=C(CN2CCC[C@@H]2C(=O)Nc2ccc(B(O)O)cc2)NC(c2nccs2)=N[C@H]1c1ccc(F)cc1Br | ICR mouse | plasma | oral | 10 mg/kg | – | 352 ± 22.6 ng·h/mL
C[C@@H]1C[C@H]2[C@@H]3CCC4=CC(=O)C=C[C@]4(C)[C@@]3(F)[C@@H](O)C[C@]2(C)[C@@]1(O)C(=O)CO | DBA/1J mouse, male | plasma | intravenous | 1 mg/kg | – | 23.2 ± 5.14 ng·h/mL
Cc1cc(N[C@H]2CCc3ccc(Cl)cc3C2)n2nc(C(C)(F)F)nc2n1 | NSG mouse | whole blood | oral | 10 mg/kg | – | 4.1 µM·h
CN1CCC[C@H](CN2c3ccccc3Sc3ccccc32)C1.Cl | ICR mouse female fasted | skin | oral | 16 mg/kg | – | 5420 ng·h/mL

Excerpt of the above:
SMILES | species | medium | route | dose | notes | AUC(0-t)
CN1CCC[C@H](CN2c3ccccc3Sc3ccccc32)C1.Cl | ICR mouse female fasted | skin | oral | 16 mg/kg | – | 5420 ng·h/mL
